Published values from different studies.
Each numbered part is a random draw from the data of one study; scales do not carry over between parts. Positions count from the first letter of the parent shown.
Chain of UniProt Q9C0B0 (30-357, looked up): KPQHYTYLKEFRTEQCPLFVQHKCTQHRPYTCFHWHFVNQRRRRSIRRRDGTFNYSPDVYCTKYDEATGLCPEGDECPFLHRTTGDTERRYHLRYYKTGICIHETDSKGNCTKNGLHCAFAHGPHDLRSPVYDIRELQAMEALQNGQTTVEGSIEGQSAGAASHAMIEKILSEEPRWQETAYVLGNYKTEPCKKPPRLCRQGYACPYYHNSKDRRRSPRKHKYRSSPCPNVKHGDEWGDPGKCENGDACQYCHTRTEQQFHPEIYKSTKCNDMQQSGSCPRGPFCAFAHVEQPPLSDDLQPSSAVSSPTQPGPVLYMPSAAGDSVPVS

Series 1
Target: Prothrombin, mature alpha-thrombin (F2, Homo sapiens, UniProt P00734)
Method: aptamer microarray, sandwich
Form: DNA with 2'F-ANA
Sample: in vitro
Concentration: 200 nM
Setting: whole 15-mer aptamer, many near background
Together with: Cy3 exosite-II aptamer, 400 nM
Direction: higher = stronger binding
Strand: GGTTGGTGTGGTTGG
Modification	mean fluorescence intensity [a.u.]
2'F-ANA at 2 3 5 6 8 9 10 13 14 15	50.2
2'F-ANA at 4 8 13 14	103
2'F-ANA at 1 2 5 6 7 9 10 12 13 15	48.5
2'F-ANA at 1 3 4 8 11 12 13 14	87.1
2'F-ANA at 2 4 5 6 10 12 14 15	46.4
2'F-ANA at 4 7	376
2'F-ANA at 1 2 6 7 9 10 14 15	43.1
2'F-ANA at 1 3 6 7 11 14 15	105
2'F-ANA at 2 3 4 5 7 9 11 15	70.3
2'F-ANA at 1 7 9 11 12 14 15	88.6
2'F-ANA at 4 5 6 8 9 10 11 15	45.8
2'F-ANA at 4 5 9 11 12 15	91.8
2'F-ANA at 1 3 4 8 9 10 11 12 15	75.9
2'F-ANA at 1 5 6 11 12	112
2'F-ANA at 1 3 5 6 7 12 14 15	241
2'F-ANA at 2 5 6 10 13 15	46.6
2'F-ANA at 3 4 6 8 9 10 11 14 15	158
2'F-ANA at 3 4 5 7 8 9 10 11 12	60.9
2'F-ANA at 3 5 8 13	103

Series 2
Target: CCNA1, cyclin fold, Cln2 fusion (human)
Method: yeast growth competition, sequencing
Sample: yeast
Setting: weak parent motif
Relative to: not given
Direction: higher = stronger binding
Starting sequence: E2F1 docking peptide (human); PPVKRRLDLETDH
Change	normalised enrichment score
E10A	0.715
D8A	0.374
L7E	0.127
D12R	0.376
D8C	0.215
E10K	0.117
P1W	0.698
H13S	0.594
K4A	0.39
D12P	0.99
L7K	0.124
R5I	0.245
L7Y	0.24
T11S	0.626
T11N	0.136
D8L	0.431
R5E	0.245

Single results of other studies
Molecule	target	assay	system	conditions	scale	measurement	value
PhoQ, residues 284 288 289 292 302 303 TVTVVA	PhoP, residues 12 14 15 18 19 NHTVL (Escherichia coli, UniProt P23836)	Sort-seq, refers to: YFP reporter	E. coli	PhoQ-PhoP variant library, together with: 10 µM Mg2+	relative to: high Mg2+ state, higher = stronger signaling	fold induction	9.97
GGGAGUUCUACAGUCCGACGAUCCAGUUUGUAUGUACAUUAUUCAUAUUCCUCUCUGUUGUGUUUCGGGGGGAAAAGACAUUUCCGCCUUUUUUAAAAGUUACUGAUUUAAUUUCAUGUUAUUUGGUUGCAUGAAGUUGCCCUCAACAGAGGAUUGAGCAUCA	RING finger protein unkempt homolog, zinc fingers 1-6, SBP tag (UNK, Homo sapiens, UniProt Q9C0B0, residues 30-357)	RNA Bind-n-Seq	RNA, in vitro	100 nM, RNA with constant flanks, ends assumed	relative to: input RNA pool, higher = stronger binding	bound/input enrichment	0.448 ratio

Excerpt of the above (series 2):
Change	normalised enrichment score
K4A	0.39
E10A	0.715
P1W	0.698
D8A	0.374
D8C	0.215
